Measurements pooled from the literature.
Numbered parts are unrelated; each lists some results of a single study.

Block 1
Target: Histone acetyltransferase KAT6A, winged helix 2, GST fusion (KAT6A, Homo sapiens, UniProt Q92794, residues 85-181)
Technique: protein binding microarray
Molecule type: double-stranded DNA, one strand shown
Medium: in vitro
Concentration: not given
Notes: 8-mer, flanks averaged, mean of 2 arrays, mostly near background
Relative to: not given
Direction: higher = stronger binding
Target sequence (chain): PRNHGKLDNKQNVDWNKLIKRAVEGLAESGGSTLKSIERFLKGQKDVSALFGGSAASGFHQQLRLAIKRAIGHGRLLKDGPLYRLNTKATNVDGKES
| Oligonucleotide | E-score |
| --- | --- |
| CTTATTGA | -0.0731 |
| ATGTGAAG | -0.0111 |
| GAGATAGC | -0.00741 |
| TAGGGGGA | -0.239 |
| AATAGGTC | -0.152 |
| CATTACGC | -0.0584 |
| TTGACAAA | 0.0394 |
| GAGGCCCA | 0.0603 |
| ACGTTTCC | -0.222 |
| AATGCGGC | -0.0224 |
| TACCCGCA | 0.228 |
| GGTAATAA | -0.0568 |
| AACCTGAT | -0.101 |
| CTAGGTTC | 0.033 |
| CTCTTAAC | -0.0306 |
| AATCTACA | 0.0714 |
| AGCATTCC | -0.0174 |
| ACCAACAG | -0.12 |
| AACTTCGC | 0.0164 |
| AATACTTC | -0.0975 |
| AGCGCATA | 0.00717 |
| GCCCGGAA | 0.139 |

Block 2
Target: Interferon regulatory factor 7, full length, phosphomimetic (IRF7, Homo sapiens, UniProt Q92985, residues 1-503, S471D/S472D/S475D/S476D/S477D/S483D/S484D/S487D)
UniProt Q92985, sequence (whole entry, unmodified, looked up): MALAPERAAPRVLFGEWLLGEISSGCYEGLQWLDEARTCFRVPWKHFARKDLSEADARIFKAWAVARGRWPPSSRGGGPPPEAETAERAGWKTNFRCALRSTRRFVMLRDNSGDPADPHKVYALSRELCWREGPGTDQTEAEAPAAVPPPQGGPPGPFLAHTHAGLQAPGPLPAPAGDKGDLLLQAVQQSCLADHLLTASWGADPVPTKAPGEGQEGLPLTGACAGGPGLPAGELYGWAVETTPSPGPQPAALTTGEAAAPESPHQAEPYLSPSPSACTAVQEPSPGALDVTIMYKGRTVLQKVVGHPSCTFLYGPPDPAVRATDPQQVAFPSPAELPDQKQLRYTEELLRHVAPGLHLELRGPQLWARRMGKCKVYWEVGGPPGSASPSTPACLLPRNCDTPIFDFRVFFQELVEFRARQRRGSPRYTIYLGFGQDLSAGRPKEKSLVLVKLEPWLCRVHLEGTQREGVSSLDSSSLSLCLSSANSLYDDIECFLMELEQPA
Technique: protein-binding microarray
Molecule type: double-stranded DNA, one strand shown
Medium: in vitro
Concentration: 2200 nM top
Notes: 60-bp whole probe
Together with: salmon DNA 0.4 mg/ml
Relative to: random background probes
Direction: higher = stronger binding
Constant ends, left off below: GCCTAGCAC … GTCTTGATTCGCTTGACGCTGCTG
| Oligonucleotide | fitted relative affinity [z-score] |
| --- | --- |
| TCATCTGTCCGTGCTCAGACTGTGCTA | 1.24 |
| GACGTTTTTCATTTTTTTTTGTGCTAG | 1.94 |
| GATGATCTCAGTTTCGAGACGTGCTAG | 3.76 |
| TGGCAGCATTCTTGGAAATCGTGCTAG | -0.528 |
| TTAAATCTCAGTTTCGATTAGTGCTAG | 5.44 |
| GACGAACTGAGTATGGAGACGTGCTAG | -0.238 |
| ATAGTGATAGCTCTGGTAAAGTGCTAG | -0.492 |
| TTAGGTTTCGGGTTTCGGTTTGTGCTA | 14.6 |
| GACGGTTTCGGCTATCGGGACGTGCTA | 3.35 |
| GACGGTATCGAATTTCGGGACGTGCTA | 1.08 |
| TTATATATCAGACTGGATTAGTGCTAG | 0.304 |
| TCACAATTTGCTTTAGTACTGTGCTAG | 1.21 |
| TTAGGTTTCGCTTTCGGTTAGTGCTAG | 16.2 |
| GAAGCCAGCTCTTTCGTTACGTGCTAG | 2.26 |
| GACGATCTCAGTTTCTAGACGTGCTAG | 1.41 |
| GATTTTTTTCATATATATATGTGCTAG | 1.05 |
| GACGGCCTGGGGACTGGGGACGTGCTA | -1.07 |
| TTAGGTTTGGGGTATCGGTTAGTGCTA | 0.503 |
| TTATGACTGGGACTGGGTTAGTGCTAG | -0.435 |
| GGTTGTTTCTAATATTCTGCTGTGCTA | 1.22 |
| TTATGTCTCGGTTTCGGTTAGTGCTAG | 7.25 |

Block 3
Target: RNA binding protein fox-1 homolog 2, RRM domain, GST-SBP tag (RBFOX2, Homo sapiens, UniProt O43251-10, residues 100-194)
Technique: RNA Bind-n-Seq
Molecule type: RNA
Medium: in vitro
Concentration: 365 nM
Notes: natural RNA segment, single round, ends assumed
Relative to: no-protein control
Direction: higher = stronger binding
Constant ends, left off below: GGGAGUUCUACAGUCCGACGAUC … UGGAAUUCUCGGGUGCCAA
Construct (chain): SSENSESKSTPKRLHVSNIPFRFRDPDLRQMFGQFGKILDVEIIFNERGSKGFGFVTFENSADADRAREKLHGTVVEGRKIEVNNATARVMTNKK
| Oligonucleotide | RBNS enrichment (R) |
| --- | --- |
| AAGUCUGAGAGACAGAGUUACUUAGACAAAUGACACUGAAGCAGAUUAGAAGCUAGUAUCACCCAUUGGGAUUGGCAAUGCCUUCAAAGGCUCCUAGUCAAAUGAUCCAA | 0.498 |
| UGGGCCACUCAGAGCCUUCCUUGAUGCUGCCAGAGUCUUCUUAUUUAGAUUUUCUGUCUUAAACCAUUGGAAGCAAAACGGUUUUCCCAUGACAUUCUGGCCUUGGACAG | 0.332 |
| CCUCUGUAAGAUACUGAUUCUUCCUGGGGCCAGUAUUACCUUGUAUGCAAAUAUUACAUAUGAUGGGUGCAUUGUCAGAGGGAAAAUAUAUGUGUAUGUACACAUGUGUA | 0.331 |
| CACUAAAUCAUAGUUUAACACAGGAAUCAAAAUGGAAGCCACGGGGAGCAUAGCAUGUGGGUUUCUUUGUAGGAGGGCACUUAGGUCCCUUGCACACAGCCAUUCCCUAG | 5.22 |
| GCUAUGUAACGCGAUCCCAUUUGCCUCUUGCUCCAUUGUGUGAUAAGCUAUGGGCUUGAAGAUGUUCUUAUAUUUCAGUGACAAUGGACACCUUAGCUUCUUAUGAGGAA | 0.793 |
| GUGGGAAAUUAAGAUUACAGAUGCUUUGGGCCCCCUCAAACAGUACAUUGCUACAGUUCACUGUAGCAACAGAUUUGGUGGUGAUGGGGGGAUAGAGGUAGAAGCAGAUA | 0.507 |
| AUAUAUUUUCGGCAGAUUGAGCUUUAGAGAUGCAACGACUUUUCCCUCUGUGCCUGUAGGAAUGCUCAGUGGAGCUGACCGAGGAAGAAAAUAAAAGAGCCAGUCAUUGA | 3.27 |
| CUGCGCCUGCUGGGGACAGUGUGGCCCUGUCCCAGUAGCUUGAUGACUCAGGGUGGACCUUGCUCCCAGGACUUGUCUCUCCCCAGGCUUUGUAGGCAAGCCUCACAAGC | 5.21 |
| CAUGUAUAAACAUUUAGCAUAUUUUUAUCAUAGGUCUAAAAAUAUUUGUUUACUAAAUACCUGUGAAGAAAUACCAUUAAAAAACUAUUUGGUUCUGAAUUCUUACUAGA | 0.626 |
| UAUUUCAAUAACAAAUGGUGCUGCUAACACCCAACAUUUCCUAAAUUAUUUUCUAUCAUACAGUUUUCAUUGGUUAUAUGAGUAUGUCUACCCAAUAAAUCACUGAAUUU | 0.627 |
| CACUCUUAUUCCCAAACUACAGAAUAAUGUGUUAAACAUGCUAAAUAGUUCUAUCAGGAAAACAAAUCACUGUAUUUAUCUCCGCAGGCUAUUUGUUCAGAGAGGCCUUU | 0.32 |
| AGCUAUUUCUAAAGUAAACAUUUUAUCUGUUACUUUUAACCAGAUAGGUGUCUUUGUCAUCCUUCUACUAUAAAUUGUUCUUUGCCAACCUGUACAGGUAGAUGAACCAG | 0.305 |

Block 4
Target: Phosphate system positive regulatory protein PHO4, full length, GST-tagged (PHO4, Saccharomyces cerevisiae, UniProt P07270, residues 1-312)
Technique: competition protein-binding microarray
Molecule type: double-stranded DNA, one strand shown
Medium: in vitro
Concentration: 2 µM
Notes: whole 60-bp probe, lowest competitor level
Together with: Cbf1 competitor, 0.05 µM
Direction: higher = stronger binding
Constant ends, left off below: … GTCTTGATTCGCTTGACGCTGCTG
Target sequence (chain): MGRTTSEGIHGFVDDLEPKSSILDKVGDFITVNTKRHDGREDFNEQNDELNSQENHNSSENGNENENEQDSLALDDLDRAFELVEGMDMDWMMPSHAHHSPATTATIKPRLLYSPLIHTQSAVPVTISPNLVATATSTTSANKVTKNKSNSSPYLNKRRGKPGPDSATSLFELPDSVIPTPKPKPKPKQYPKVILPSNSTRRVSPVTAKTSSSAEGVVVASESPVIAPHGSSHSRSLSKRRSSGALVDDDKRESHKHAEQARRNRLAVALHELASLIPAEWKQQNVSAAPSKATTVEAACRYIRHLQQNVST
| Oligonucleotide | fluorescence intensity |
| --- | --- |
| CGGGGTTAAGTTTTTCACGTGGGTTGCTTGCAGCAG | 14400 a.u. |
| AGATCCTGGACATGGAACGTGAACCTAGGCTTGATG | 8020 a.u. |
| AAATTACTAAGTTGCCCCGTGGGTGACGCCGTATGA | 9930 a.u. |
| AGTATAGGGCATTTAAAGGTGTGCCAGCAGCGGGTT | 6570 a.u. |
| TGAACCAGTCAATATCACACTTCCAAATGGTTTGAC | 3810 a.u. |
| TTAAAAAAAAAAAAGCACGTGCTAAAAAATGTTTTT | 19100 a.u. |
| CTAACGAAGGTTTGGAGCGTGGGTGACAAGCCAAGT | 8170 a.u. |
| TGTTAGCGCAAATGCTACATGACAGGCCAATCGTAG | 4320 a.u. |
| CGGGGTTAAGTTTGGTCGGTGGGTGGCTTGCAGCAG | 4530 a.u. |
| CTAACGAAGGTTTGTACGGTGGGTGACAAGCCAAGT | 3790 a.u. |
| CATACCCAACCTTGGACAGTGGGTGAAGATATTTGT | 3380 a.u. |
| ACTCAAAAGCGTACTCACGTTTTGAAGAAGAACCCA | 10300 a.u. |
| CAGAACCTGCTAAAGCACGTGATGGGAGAAAATCAA | 15500 a.u. |
| GACATTGCCCTGAGCATCGTGCAAATGGGGGACACT | 8480 a.u. |
| CGAATTACTTGACGTATCGTGCCGATCCGTTGATGC | 7130 a.u. |
| CTTTCCCGATCTTTTCACGTGACTTTAGCACATTTG | 12400 a.u. |
| TTCCTGGTAGTCTCGCATACGTTTGTCAGTGGCATT | 4470 a.u. |
| AATCCAAGTTTCGGCCACGATGGCAGCAGCCTATTG | 9380 a.u. |
| TTGTTGAATTTGGGACCCTTGTTGATACCTCTGGAT | 2890 a.u. |
| CTGGGACATATTCAGTTCGTGCCAGTTTTTAAAGGG | 7280 a.u. |
| GGACCCGGCCCCGCGCACGCGGACTCCGGGACTACA | 11500 a.u. |
| TTCATTGTAGATAGTACCGTGATGGCCTTCGGCAGG | 4960 a.u. |
| TGTTCAAGTGCTTTTCACGTGTAGGATTACTTAACC | 11500 a.u. |
| GACAGTCTTAGTGTAGACATGACAGTTCTTGGTGGC | 3860 a.u. |
| AAAGCGGTAATTTTTCACGTGTACTCACATATCTAT | 13400 a.u. |

Block 5
Target: Sal-like protein 4, full length isoform A (SALL4, Homo sapiens, UniProt Q9UJQ4, residues 1-1053)
UniProt Q9UJQ4, sequence (whole entry, looked up): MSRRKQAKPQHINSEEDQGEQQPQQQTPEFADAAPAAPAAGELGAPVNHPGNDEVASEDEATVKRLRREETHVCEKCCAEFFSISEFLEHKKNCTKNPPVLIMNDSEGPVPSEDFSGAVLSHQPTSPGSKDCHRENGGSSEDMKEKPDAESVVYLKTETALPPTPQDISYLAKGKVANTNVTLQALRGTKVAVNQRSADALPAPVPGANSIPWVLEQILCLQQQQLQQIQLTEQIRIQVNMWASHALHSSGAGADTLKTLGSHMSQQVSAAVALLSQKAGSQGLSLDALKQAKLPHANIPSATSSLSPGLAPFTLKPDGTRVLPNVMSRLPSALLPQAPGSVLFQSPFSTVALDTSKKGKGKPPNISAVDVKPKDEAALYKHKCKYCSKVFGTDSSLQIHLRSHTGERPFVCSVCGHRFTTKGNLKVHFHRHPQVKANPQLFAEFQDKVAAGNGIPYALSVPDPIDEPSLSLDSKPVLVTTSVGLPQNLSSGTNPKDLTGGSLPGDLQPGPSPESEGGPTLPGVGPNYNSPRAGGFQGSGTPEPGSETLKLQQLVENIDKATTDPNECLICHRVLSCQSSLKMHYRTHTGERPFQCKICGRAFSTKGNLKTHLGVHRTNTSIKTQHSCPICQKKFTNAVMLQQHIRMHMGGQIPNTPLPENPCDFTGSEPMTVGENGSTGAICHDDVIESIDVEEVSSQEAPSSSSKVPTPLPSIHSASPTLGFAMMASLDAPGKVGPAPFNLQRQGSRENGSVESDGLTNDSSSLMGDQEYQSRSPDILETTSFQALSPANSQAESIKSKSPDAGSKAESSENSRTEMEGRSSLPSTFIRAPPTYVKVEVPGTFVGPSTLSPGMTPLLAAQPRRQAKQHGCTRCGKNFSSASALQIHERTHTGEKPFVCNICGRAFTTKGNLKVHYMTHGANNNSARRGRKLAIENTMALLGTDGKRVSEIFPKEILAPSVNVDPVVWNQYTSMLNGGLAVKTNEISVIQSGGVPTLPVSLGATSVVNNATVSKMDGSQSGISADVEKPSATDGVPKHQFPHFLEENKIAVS
Technique: universal PBM
Molecule type: double-stranded DNA, one strand shown
Medium: in vitro
Concentration: 600 nM
Notes: 8-mer, flanks averaged, mean of replicates
Direction: higher = stronger binding
| Oligonucleotide | E-score |
| --- | --- |
| AGGAGACT | -0.111 |
| TACACTCA | 0.205 |
| ATATCCCG | -0.0148 |
| AAGCTAGC | -0.0956 |
| ATGTCAAA | 0.286 |
| AATCTAAC | 0.152 |
| AAAATGGT | 0.287 |
| ACATCACT | 0.208 |
| GCCCCGAA | -0.272 |
| AGCGAGCT | -0.132 |
| ATGGTGTC | 0.0105 |
| AATTTTGA | 0.303 |
| CGATACCC | -0.36 |
| AAGATTAC | 0.17 |
| ACCCCTGG | -0.318 |
| GCTCACTA | 0.0049 |
| AGCAATTG | 0.153 |
| CCCGCTAA | -0.283 |
| ACTGGGCG | -0.286 |
| ACCGTTCA | -0.141 |
| CGAAATAG | 0.0818 |

Excerpt of the above (block 1):
| Oligonucleotide | E-score |
| --- | --- |
| CATTACGC | -0.0584 |
| TTGACAAA | 0.0394 |
| GAGGCCCA | 0.0603 |
| ACGTTTCC | -0.222 |
| AATGCGGC | -0.0224 |
| TACCCGCA | 0.228 |
| GGTAATAA | -0.0568 |
| AACCTGAT | -0.101 |
| CTAGGTTC | 0.033 |
| CTCTTAAC | -0.0306 |
